Measured values from different studies.
Protocols differ between the studies behind these lines.
UCHL1: Ubiquitin carboxyl-terminal hydrolase isozyme L1 (UCHL1, Homo sapiens, UniProt P09936)
UniProt P09936, sequence (whole entry, looked up): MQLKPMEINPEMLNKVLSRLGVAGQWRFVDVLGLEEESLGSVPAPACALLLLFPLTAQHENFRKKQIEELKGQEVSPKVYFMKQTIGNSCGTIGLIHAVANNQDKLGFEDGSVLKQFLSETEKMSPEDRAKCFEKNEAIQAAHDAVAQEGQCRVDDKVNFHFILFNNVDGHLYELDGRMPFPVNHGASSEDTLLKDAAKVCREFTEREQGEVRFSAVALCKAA
LATS2: Serine/threonine-protein kinase LATS2 (LATS2, Homo sapiens, UniProt Q9NRM7)
UniProt Q9NRM7, sequence (whole entry, looked up): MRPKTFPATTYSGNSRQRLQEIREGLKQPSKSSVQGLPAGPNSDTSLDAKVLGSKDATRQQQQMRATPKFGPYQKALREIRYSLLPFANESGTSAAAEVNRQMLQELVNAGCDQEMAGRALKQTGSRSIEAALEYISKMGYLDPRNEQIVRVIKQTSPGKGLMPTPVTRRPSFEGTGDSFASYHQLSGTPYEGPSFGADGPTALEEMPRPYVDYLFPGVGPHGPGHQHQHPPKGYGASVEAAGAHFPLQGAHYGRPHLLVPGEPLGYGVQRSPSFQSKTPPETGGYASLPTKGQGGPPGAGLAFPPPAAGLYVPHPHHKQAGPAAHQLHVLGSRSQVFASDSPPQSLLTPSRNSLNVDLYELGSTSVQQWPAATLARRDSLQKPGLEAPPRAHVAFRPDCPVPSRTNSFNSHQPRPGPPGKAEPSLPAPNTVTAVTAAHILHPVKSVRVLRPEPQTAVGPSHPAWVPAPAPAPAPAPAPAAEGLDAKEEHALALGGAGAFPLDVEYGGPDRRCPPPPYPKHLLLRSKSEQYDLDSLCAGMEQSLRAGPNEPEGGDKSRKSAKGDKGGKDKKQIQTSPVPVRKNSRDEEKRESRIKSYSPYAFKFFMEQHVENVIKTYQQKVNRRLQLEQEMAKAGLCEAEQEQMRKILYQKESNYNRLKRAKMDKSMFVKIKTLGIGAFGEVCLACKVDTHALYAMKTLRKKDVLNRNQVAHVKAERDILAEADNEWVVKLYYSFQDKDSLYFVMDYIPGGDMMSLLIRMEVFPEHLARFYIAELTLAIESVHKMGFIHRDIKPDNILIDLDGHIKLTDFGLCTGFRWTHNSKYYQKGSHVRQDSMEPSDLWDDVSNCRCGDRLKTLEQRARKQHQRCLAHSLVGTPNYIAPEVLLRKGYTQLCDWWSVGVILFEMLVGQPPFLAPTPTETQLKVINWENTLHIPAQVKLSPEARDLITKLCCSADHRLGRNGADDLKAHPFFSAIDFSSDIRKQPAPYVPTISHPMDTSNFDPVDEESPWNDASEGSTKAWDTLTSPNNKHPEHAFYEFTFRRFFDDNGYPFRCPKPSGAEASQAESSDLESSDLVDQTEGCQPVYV

CC(=O)Nc1ccc(C=C(C#N)C(=O)NCc2ccccc2)cc1 — labelling (UCHL1; covalent, intact protein LC-MS; 12.5 µM): 16.9%
CC[C@@H]1[C@H](F)C(=O)N[C@@H]1COc1nccc2cc(C(N)=O)c(OC)cc12 — inhibition (LATS2; ATP-site probe binding, ActivX profiling; THP-1 cell lysate; 0.04 mM, Lys2 site): -16%
C=CC(=O)N1CCC(C(=O)NCC(=O)N2CCN(c3nc(-c4cnc(N)nc4C(F)F)nc(N4CCOCC4)n3)CC2)CC1 — remaining binding (LATS2; KINOMEscan; 1 µM): 100%
COc1cc(-c2cncc3c2CN(C)Cc2cc(N4CCNCC4)ccc2-3)cc(OC)c1OC — remaining activity (LATS2; kinase activity; 1 µM, human enzyme, added: ATP 10 µM; reference: DMSO control): 109%
Cc1cc(-c2ccnc3[nH]cc(F)c23)cc(F)c1[C@@]1(O)[C@H](C)CN(C2CCS(=O)(=O)CC2)C[C@@H]1C — inhibition (LATS2; ATP probe binding, KiNativ, measured: Lys2 site; HEK293T cell lysate; 0.1 µM): 30.5%
C[C@@H](c1ccc(-n2cnc3c(N)ncnc32)cc1)N1CCc2nn(C)c(Cc3ccccc3)c2C1=O — remaining binding (LATS2; KINOMEscan; 0.1 µM; reference: DMSO control): 100%
O=C(NC1CCC1)c1ccc2nc(-c3cccc(NS(=O)(=O)NCCN4CCCCC4)c3)cn2c1 — remaining activity (LATS2; enzyme activity; 10 µM): 100%
C1=C/COCc2cc(ccc2OCCN2CCCC2)Nc2nccc(n2)-c2cccc(c2)COC/1 — percent of control (LATS2; concentration not given): 88%
O=C(CCl)c1ccc2c(c1)-c1ccccc1C2 — labelling (UCHL1; covalent, intact protein LC-MS; 12.5 µM): 18.9%
C=CC(=O)N1CCC(COCC(=O)N2CCN(c3nc(-c4cnc(N)nc4C(F)F)nc(N4CCOC[C@@H]4C)n3)CC2)CC1 — remaining binding (LATS2; KINOMEscan; 1 µM; reference: DMSO control): 87%

For quick reference, copied from above:
C1=C/COCc2cc(ccc2OCCN2CCCC2)Nc2nccc(n2)-c2cccc(c2)COC/1 — percent of control (LATS2; concentration not given): 88%
